Results from different studies.
A part holds a random share of what one study measured. Positions count from the first letter of the parent shown.

Block 1 — target: CCNB2, cyclin fold, Cln2 fusion (human); technique: yeast growth competition, sequencing; sample: yeast; notes: weak parent motif; baseline: not given; reading: higher = stronger binding; quantity: normalised enrichment score
Starting sequence: RBL1 docking peptide (human); GSAKRRLFGEDPP; partner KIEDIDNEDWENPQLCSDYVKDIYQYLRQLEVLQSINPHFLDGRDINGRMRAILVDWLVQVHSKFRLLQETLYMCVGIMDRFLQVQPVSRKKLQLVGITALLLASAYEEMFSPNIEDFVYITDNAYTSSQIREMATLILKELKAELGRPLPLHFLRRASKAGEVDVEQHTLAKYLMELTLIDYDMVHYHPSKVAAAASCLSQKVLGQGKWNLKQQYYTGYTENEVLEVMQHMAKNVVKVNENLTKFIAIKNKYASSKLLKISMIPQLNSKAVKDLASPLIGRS
Substitution = A3Y; result = 0.284
Substitution = D11S; result = 0.332
Substitution = P12R; result = 0.184
Substitution = A3W; result = -0.0614
Substitution = E10V; result = -0.473
Substitution = E10W; result = 0.0233
Substitution = S2N; result = 0.16
Substitution = G9Y; result = -0.067
Substitution = K4M; result = -0.281
Substitution = R6Q; result = -0.409

Block 2 — technique: protein-binding microarray; molecule type: double-stranded DNA, one strand shown; sample: in vitro; tested at: 2540 nM top; notes: 60-bp whole probe; added: salmon DNA 0.4 mg/ml; baseline: random background probes; reading: higher = stronger binding; quantity: fitted relative affinity; constant ends, left off below: GCCTAGCAC … GTCTTGATTCGCTTGACGCTGCTG
Target: Interferon regulatory factor 3, full length, phosphomimetic (IRF3, Homo sapiens, UniProt Q14653, residues 1-427, S386D/S396D/S398D/S402D/T404D/S405D)
Construct (chain): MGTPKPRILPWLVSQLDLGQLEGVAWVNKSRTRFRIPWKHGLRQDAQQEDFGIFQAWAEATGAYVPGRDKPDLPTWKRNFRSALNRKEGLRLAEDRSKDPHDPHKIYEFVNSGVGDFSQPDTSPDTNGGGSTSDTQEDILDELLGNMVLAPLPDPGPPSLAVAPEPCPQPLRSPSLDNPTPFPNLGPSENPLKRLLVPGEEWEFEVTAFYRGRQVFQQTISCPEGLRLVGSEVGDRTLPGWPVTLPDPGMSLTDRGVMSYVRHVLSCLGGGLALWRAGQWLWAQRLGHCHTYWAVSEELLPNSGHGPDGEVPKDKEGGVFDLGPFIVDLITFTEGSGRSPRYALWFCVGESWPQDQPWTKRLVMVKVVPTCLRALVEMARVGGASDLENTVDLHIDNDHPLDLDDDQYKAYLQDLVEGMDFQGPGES
Strand = TTACATTTATATCTTTGCTTGTGCTAG; result = 0.725 z-score
Strand = TTAGAATTCAGTTTCGATTAGTGCTAG; result = 5.09 z-score
Strand = GACCATTTCGGGACTGGAGACGTGCTA; result = 2.22 z-score
Strand = TATGCTTTCTTTAACTCATTGTGCTAG; result = 1.18 z-score
Strand = GACGACCTCAGTTTCGAGACGTGCTAG; result = 1.6 z-score
Strand = GACGATTACAGACTGGAGACGTGCTAG; result = 0.0168 z-score
Strand = TTAGGTATCCTTCTCCTCTAGTGCTAG; result = 7.2 z-score

Block 3 — technique: protein binding microarray; molecule type: double-stranded DNA, one strand shown; sample: in vitro; tested at: not given; baseline: not given; reading: higher = stronger binding; quantity: E-score
Target: Histone acetyltransferase KAT6A, winged helix 1, GST fusion (KAT6A, Homo sapiens, UniProt Q92794, residues 1-85)
Notes: 8-mer, flanks averaged, mean of 2 arrays, mostly near background
Residues (chain): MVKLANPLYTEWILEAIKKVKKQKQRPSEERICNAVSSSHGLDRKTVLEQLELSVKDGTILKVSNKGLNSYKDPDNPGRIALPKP
Strand = AGGACCTG; result = -0.036
Strand = CTCACTAC; result = -0.19
Strand = ACCGCCTG; result = 0.175
Strand = ATAGATGG; result = -0.0821
Strand = CGCACACA; result = 0.183
Strand = GGGGATCA; result = -0.0706
Strand = ATCGCGAC; result = 0.206
Strand = TATTGACA; result = -0.0282
Strand = CATCTTGG; result = -0.293
Strand = ATCAGGGA; result = -0.195
Strand = AAACTACC; result = -0.0507
Strand = CAATCCCG; result = 0.281
Strand = AGGGGGGG; result = -0.236

Mixed results
Substance = PhoQ, residues 284 288 289 292 302 303 TSTLRA; target = PhoP, residues 12 14 15 18 19 NMSFL (Escherichia coli, UniProt P23836); test = Sort-seq, refers to: YFP reporter; test system = E. coli; setting = PhoQ-PhoP variant library, added: 10 µM Mg2+; scale = baseline: high Mg2+ state, higher = stronger signaling; quantity = fold induction; result = 7.75

Some of these lines once more (block 3):
Strand = GGGGATCA; result = -0.0706
Strand = ATCAGGGA; result = -0.195
Strand = AGGGGGGG; result = -0.236
Strand = CAATCCCG; result = 0.281
Strand = CTCACTAC; result = -0.19
